Measurements pooled from the literature.
Lines come from different studies, so protocols differ. ± marks the error that the study gave. No end group written: not given here.
CHRM1: Muscarinic acetylcholine receptor M1 (CHRM1, Homo sapiens, UniProt P11229)
Sequence of UniProt P11229 (whole entry, looked up): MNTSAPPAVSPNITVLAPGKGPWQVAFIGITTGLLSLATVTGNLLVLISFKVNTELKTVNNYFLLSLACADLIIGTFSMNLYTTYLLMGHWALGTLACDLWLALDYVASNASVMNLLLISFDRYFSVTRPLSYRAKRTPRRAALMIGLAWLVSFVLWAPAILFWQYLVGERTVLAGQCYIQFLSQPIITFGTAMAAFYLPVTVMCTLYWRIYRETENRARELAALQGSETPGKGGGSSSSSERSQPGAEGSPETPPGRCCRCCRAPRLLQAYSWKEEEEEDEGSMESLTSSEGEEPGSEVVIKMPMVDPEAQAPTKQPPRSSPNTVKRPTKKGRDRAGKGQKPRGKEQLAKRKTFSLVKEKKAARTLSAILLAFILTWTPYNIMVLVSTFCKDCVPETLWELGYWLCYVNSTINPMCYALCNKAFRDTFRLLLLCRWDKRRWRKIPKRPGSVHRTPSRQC
T1: c-di-GMP riboswitch (Clostridium acetobutylicum); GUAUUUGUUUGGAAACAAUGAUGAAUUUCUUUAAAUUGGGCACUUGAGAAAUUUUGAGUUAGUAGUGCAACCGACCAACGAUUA
B1: side-chain stapled; chain GRTKQEARKSTGG (also: sidechain bridge or staple (positions not given here))
Sequence of UniProt Q8T6T2 (whole entry, looked up): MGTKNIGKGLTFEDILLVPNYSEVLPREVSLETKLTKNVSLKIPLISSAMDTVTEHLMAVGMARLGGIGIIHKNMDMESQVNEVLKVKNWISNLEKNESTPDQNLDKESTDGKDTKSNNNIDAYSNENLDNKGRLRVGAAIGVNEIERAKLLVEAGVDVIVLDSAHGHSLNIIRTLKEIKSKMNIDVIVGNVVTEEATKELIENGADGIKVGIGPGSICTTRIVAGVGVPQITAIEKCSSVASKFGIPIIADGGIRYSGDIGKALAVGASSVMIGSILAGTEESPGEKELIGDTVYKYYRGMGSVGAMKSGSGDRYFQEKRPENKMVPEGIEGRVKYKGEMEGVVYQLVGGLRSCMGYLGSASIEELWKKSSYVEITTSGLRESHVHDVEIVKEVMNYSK
Sequence of UniProt Q8WTS6 (whole entry, looked up): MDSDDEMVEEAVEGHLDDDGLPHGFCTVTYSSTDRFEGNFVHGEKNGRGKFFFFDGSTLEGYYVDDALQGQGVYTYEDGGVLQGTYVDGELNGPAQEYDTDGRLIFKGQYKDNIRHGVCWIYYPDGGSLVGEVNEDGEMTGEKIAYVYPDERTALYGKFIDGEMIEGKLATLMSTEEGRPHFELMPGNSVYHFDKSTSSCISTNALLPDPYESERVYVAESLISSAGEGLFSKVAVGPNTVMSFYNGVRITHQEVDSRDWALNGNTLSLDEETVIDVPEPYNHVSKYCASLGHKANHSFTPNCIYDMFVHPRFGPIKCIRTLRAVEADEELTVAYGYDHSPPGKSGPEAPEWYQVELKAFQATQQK
Sequence of UniProt P08246 (whole entry, looked up): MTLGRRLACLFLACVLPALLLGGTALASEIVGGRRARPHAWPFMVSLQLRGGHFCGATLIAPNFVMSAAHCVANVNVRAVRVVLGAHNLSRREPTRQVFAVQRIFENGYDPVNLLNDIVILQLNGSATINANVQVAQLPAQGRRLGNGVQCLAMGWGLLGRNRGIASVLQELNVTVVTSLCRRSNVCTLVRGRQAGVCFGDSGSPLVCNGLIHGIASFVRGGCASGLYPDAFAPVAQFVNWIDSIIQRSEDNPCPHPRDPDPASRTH
Sequence of UniProt Q9Y5Y9 (whole entry, looked up): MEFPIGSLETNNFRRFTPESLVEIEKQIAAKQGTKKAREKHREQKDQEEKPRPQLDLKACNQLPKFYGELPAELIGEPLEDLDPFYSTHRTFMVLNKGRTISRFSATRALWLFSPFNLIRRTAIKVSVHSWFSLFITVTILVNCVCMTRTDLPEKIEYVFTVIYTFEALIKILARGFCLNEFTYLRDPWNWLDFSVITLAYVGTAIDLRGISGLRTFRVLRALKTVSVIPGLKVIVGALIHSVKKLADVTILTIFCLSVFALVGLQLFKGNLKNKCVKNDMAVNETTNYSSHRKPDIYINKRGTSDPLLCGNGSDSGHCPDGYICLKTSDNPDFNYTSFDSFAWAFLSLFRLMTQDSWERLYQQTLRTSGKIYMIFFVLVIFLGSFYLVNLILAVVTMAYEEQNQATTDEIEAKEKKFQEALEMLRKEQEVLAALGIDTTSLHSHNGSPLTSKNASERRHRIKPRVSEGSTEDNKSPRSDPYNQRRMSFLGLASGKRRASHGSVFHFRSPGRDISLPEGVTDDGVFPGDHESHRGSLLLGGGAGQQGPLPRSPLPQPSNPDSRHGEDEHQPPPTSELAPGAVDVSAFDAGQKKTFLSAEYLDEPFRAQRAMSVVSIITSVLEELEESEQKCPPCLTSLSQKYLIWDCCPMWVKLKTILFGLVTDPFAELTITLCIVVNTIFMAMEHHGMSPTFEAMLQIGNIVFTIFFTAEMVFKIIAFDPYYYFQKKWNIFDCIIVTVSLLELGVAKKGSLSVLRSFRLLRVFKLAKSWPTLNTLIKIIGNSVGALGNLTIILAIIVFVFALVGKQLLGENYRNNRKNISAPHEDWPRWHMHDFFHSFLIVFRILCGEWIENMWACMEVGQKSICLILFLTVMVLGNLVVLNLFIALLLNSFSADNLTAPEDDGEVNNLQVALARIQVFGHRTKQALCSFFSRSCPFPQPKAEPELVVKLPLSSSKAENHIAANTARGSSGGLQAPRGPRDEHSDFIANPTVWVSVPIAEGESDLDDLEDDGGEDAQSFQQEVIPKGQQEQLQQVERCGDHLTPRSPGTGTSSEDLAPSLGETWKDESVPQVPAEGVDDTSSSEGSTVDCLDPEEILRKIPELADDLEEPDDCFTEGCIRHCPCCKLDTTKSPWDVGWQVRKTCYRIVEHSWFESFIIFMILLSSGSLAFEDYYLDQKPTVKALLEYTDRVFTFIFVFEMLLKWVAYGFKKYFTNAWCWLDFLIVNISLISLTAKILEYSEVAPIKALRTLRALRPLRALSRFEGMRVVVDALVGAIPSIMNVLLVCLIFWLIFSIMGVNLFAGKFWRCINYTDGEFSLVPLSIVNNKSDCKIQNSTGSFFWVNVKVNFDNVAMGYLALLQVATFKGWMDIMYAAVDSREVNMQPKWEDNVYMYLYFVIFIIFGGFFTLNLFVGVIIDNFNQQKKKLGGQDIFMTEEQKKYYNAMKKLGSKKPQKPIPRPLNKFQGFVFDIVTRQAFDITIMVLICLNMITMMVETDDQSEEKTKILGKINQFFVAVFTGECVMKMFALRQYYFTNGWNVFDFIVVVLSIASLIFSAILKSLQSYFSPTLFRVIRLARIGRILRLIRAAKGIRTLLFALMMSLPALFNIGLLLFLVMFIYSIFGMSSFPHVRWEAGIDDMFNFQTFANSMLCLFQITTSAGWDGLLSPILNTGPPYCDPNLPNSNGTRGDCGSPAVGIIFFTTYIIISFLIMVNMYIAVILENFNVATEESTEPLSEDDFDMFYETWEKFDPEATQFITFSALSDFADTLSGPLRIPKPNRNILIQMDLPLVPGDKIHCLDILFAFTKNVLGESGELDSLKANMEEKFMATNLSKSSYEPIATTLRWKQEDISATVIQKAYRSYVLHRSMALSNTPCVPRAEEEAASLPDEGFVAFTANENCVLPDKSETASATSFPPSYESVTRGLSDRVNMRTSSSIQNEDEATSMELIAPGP
Sequence of UniProt P08173 (whole entry, looked up): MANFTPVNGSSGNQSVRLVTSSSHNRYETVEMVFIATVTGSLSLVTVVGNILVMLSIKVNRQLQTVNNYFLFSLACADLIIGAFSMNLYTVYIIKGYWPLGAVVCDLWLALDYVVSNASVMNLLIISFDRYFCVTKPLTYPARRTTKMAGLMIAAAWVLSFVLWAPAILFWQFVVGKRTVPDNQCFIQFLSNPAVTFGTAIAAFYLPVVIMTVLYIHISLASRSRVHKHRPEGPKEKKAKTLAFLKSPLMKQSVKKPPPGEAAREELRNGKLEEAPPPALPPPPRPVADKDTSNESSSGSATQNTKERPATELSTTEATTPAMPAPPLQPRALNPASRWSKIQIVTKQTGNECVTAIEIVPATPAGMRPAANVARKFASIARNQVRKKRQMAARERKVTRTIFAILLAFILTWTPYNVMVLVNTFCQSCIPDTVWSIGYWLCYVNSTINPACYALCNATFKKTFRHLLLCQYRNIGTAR
Sequence of UniProt Q21974 (whole entry, unmodified, looked up): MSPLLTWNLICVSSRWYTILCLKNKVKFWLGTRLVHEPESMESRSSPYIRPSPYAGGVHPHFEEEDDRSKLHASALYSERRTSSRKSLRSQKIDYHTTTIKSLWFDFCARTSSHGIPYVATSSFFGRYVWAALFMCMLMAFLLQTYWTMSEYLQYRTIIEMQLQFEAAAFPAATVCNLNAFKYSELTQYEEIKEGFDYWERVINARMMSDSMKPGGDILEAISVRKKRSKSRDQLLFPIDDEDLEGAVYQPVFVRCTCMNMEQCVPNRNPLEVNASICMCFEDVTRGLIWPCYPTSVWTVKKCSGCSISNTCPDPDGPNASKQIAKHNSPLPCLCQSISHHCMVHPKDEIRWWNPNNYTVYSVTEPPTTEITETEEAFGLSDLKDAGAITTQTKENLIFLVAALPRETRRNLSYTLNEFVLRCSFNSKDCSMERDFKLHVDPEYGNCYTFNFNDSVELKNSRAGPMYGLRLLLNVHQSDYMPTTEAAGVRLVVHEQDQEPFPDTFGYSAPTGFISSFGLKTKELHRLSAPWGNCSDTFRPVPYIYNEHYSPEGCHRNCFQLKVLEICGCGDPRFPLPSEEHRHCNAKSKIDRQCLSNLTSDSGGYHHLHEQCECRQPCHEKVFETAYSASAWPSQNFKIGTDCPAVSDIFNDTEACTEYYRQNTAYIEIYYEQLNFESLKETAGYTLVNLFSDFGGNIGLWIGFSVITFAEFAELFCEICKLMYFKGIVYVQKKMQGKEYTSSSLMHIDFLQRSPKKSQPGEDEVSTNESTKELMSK

C=CC(C)(C)c1cc(-c2oc3cc(O)ccc3c2Cc2cc(-c3cc4cc(C(C)(C)C=C)c(O)cc4oc3=O)c(O)cc2O)c(O)cc1O
concentration doubling activity (quinone reductase; inducer; Hepa1c1c7): 3 µM

CCCNC(C)C(=O)Nc1c(C)csc1C(=O)OCC (centres unmarked)
capacity factor k′ (SCN10A (Homo sapiens, UniProt Q9Y5Y9); cell membrane chromatography; higher = stronger binding): 23

COc1ccc(Cn2cc(C(=O)O)c(=O)c3ccccc32)cc1
log α (cooperativity) (CHRM1; IP1 accumulation, positive allosteric modulator, operational allosteric model; human cells; pKB fixed to published value, with: acetylcholine): 1.6 ± 0.09

O=c1cc(-c2ccccc2OCc2ccc(Br)cc2)ncn1C1CCCCC1O (centres unmarked)
change in baseline activity (CHRM1; allosteric agonist, IP1 accumulation; CHO-M1 cells; 10 µM, unit not given; baseline: maximum ACh response): 73.4 ± 4.1

Nc1nc2c(ccn2[C@@H]2O[C@@H]3COP(=O)(O)O[C@H]4[C@@H](O)[C@H](n5ccc6c(=O)[nH]c(N)nc65)O[C@@H]4COP(=O)(O)O[C@H]3[C@H]2O)c(=O)[nH]1
Kd (T1, c-di-GMP riboswitch (Clostridium acetobutylicum); competitor, competition gel-shift; 4-24 h, pH 6.8, 22 °C, with: radiolabelled c-di-GMP): 3.5 µM

CCCn1cc(-c2ccc(COc3ccccc3-c3cc(=O)n(C4CCCCC4O)cn3)cc2)cn1 (centres unmarked)
ΔpEC50 of ACh (CHRM1; positive allosteric modulator, IP1 accumulation; CHO-M1 cells; 1 µM, 60 min, 37 °C, with: ACh; baseline: ACh alone, higher = stronger potentiation): 1.49 ± 0.16 log units

O=C(Nc1nc2cccnc2s1)C1CCC1
activity (CHRM4 (Homo sapiens, UniProt P08173); calcium mobilization, positive allosteric modulator; CHO expressing hM4 and Gqi5; concentration not given, with: acetylcholine EC20): inactive

O=c1cc(-c2ccccc2OCc2ccc(-c3cn[nH]c3)cc2)ncn1C1CCCCC1O (centres unmarked)
change in baseline activity (CHRM1; allosteric agonist, IP1 accumulation; CHO-M1 cells; 1 µM, unit not given; baseline: maximum ACh response): 54.5 ± 3.1

NC(=O)c1ccc[n+]([C@@H]2O[C@H](COP(=O)([O-])OP(=O)(O)OC[C@H]3O[C@@H](n4cnc5c(N)ncnc54)[C@H](O)[C@@H]3O)[C@@H](O)[C@H]2O)c1
Kii (Inosine-5'-monophosphate dehydrogenase (Cryptosporidium parvum, UniProt Q8T6T2); uncompetitive substrate inhibition; pH 8.0, 25 °C, dinucleotide intercept constant): 4.9 mM

B1
methylation conversion (SETD7 (Homo sapiens, UniProt Q8WTS6); peptide methylation, substrate, MALDI-TOF MS; 10 µM, 3 h, pH 8.0, 37 °C, enzyme 500 nM, with: SAM 30 µM): ≥ 90%

AAPVRGMG
complete release time (Neutrophil elastase (ELANE, Homo sapiens, UniProt P08246); substrate; peptide, PEG hydrogel; with: elastase 1 µM): ~1 h

NC(=Nc1ccccc1)NC(=O)c1nc(Cl)c(N)nc1N
current change (unc-8 (Caenorhabditis elegans, UniProt Q21974, G387E); ion current, two-electrode voltage clamp; Xenopus oocytes coexpressing MEC-2; 30 µM, -85 mV; baseline: uninjected oocytes, positive = inhibition): 0.18 µA

O=c1cc(-c2ccccc2OCc2ccc([N+](=O)[O-])cc2)ncn1C1CCCCC1O (centres unmarked)
ΔpEC50 of ACh (CHRM1; positive allosteric modulator, IP1 accumulation; CHO-M1 cells; 10 µM, 60 min, 37 °C, with: ACh; baseline: ACh alone, higher = stronger potentiation): 1.52 ± 0.22 log units

cardiac troponin I R141Q
binding (F1FO-ATP synthase (rat heart); ELISA; concentration not given): no binding

Repeated from above:
NC(=Nc1ccccc1)NC(=O)c1nc(Cl)c(N)nc1N
current change (unc-8 (Caenorhabditis elegans, UniProt Q21974, G387E); ion current, two-electrode voltage clamp; Xenopus oocytes coexpressing MEC-2; 30 µM, -85 mV; baseline: uninjected oocytes, positive = inhibition): 0.18 µA
